Measurements gathered from unrelated publications.
Numbered parts are unrelated; each lists some results of a single study. Substitutions count along the parent as printed.

Sample 1
Target: Histone acetyltransferase KAT6A, winged helix 1, GST fusion (KAT6A, Homo sapiens, UniProt Q92794, residues 1-85)
Technique: protein binding microarray
Molecule type: double-stranded DNA, one strand shown
Sample: in vitro
Concentration: not given
Setting: 8-mer, flanks averaged, mean of 2 arrays, mostly near background
Baseline: not given
Direction: higher = stronger binding
Target sequence (chain): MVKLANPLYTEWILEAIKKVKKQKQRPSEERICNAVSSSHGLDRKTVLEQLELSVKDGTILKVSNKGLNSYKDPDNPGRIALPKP
Strand | E-score
AGCAAAAA | -0.208
TAGTCAGA | -0.0558
CCTTTCGC | 0.199
ATCCCGTC | 0.322
GTGCCTTA | -0.168
CGAAGGGC | 0.18
ATCGGTTG | -0.0795
TAGCTCAA | -0.0948

Sample 2
Target: inorganic phosphate, free oxyanion
Technique: microfluidic competitive inhibition
Sample: in vitro, cell-free expressed
Concentration: not given
Setting: derived from inhibition constants, unchanged parent 615000 nM
Direction: lower = stronger binding
Parent: PafA, mature enzyme, eGFP fusion (Elizabethkingia meningoseptica, UniProt Q9KJX5); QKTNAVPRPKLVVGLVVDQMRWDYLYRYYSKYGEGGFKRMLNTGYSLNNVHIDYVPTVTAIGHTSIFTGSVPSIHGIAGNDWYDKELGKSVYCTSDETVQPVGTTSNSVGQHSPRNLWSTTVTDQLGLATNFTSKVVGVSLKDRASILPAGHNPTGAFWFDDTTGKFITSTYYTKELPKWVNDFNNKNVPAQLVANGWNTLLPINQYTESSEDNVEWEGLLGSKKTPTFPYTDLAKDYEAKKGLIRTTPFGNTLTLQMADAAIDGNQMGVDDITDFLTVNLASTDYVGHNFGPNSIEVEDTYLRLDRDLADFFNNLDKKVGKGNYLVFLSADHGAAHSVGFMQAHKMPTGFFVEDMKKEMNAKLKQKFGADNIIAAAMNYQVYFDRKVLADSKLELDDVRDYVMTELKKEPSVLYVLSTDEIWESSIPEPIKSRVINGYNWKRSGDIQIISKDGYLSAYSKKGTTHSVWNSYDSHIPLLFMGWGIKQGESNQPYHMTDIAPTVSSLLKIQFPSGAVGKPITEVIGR
Substitution | phosphate dissociation constant [µM]
F160G | 545
N131V | 609
D162V | 564
A500V | 628
G463V | 198
M347V | 676

Sample 3
Target: CCND2, cyclin fold, Cln2 fusion (human)
Technique: yeast growth competition, sequencing
Sample: yeast
Setting: weak parent motif
Baseline: not given
Direction: higher = stronger binding
Parent: viral docking peptide; KGVKRKLFAEDSS; partner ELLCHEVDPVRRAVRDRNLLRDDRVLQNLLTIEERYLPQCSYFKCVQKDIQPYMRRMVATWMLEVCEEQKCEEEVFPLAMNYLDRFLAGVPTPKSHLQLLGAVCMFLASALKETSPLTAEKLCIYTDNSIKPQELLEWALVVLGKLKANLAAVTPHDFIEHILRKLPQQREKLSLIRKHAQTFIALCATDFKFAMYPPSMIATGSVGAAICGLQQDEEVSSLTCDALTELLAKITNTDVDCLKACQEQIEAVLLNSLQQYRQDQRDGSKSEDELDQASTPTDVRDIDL
Substitution | normalised enrichment score
R5P | 0.114
R5I | -0.0567
G2S | -0.0976
L7I | 0.368
K6L | 0.0706
G2L | -0.0467
K6E | 0.372
R5M | 0.00648
A9C | 0.0682
G2K | 0.549
L7F | 0.255
L7N | 0.191
A9T | -0.00725
S12L | 0.0953
L7Y | 0.432
F8R | 0.187
E10A | 0.148
D11F | 0.133
K6V | 0.0313

Sample 4
Target: Sal-like protein 4, full length isoform B (SALL4, Homo sapiens, UniProt Q9UJQ4-2, residues 1-616)
Technique: universal PBM
Molecule type: double-stranded DNA, one strand shown
Sample: in vitro
Concentration: not given
Setting: 8-mer, flanks averaged, mean of replicates
Direction: higher = stronger binding
Strand | E-score
CACGCTGC | -0.24
CGAACCTC | -0.0832
GCCTCAGC | -0.22
AACGTCCA | 0.0998
CAGTAGGG | -0.176
AACACAAA | 0.159
CCGCCCAG | -0.285
CGAGGCAG | -0.172

Repeated from above (sample 2):
Substitution | phosphate dissociation constant [µM]
N131V | 609
D162V | 564
A500V | 628
G463V | 198
M347V | 676
